# Results from different studies.
# Every numbered part comes from another study and shows a few of its results, in no order. Changes are numbered by the printed parent chain.

# Set 1
# Target: CCNF, cyclin fold, Cln2 fusion (human)
# Technique: yeast growth competition, sequencing
# Sample: yeast
# Notes: strong parent motif
# Baseline: not given
# Reading: higher = stronger binding
# Starting sequence: CDC6 docking peptide (human); TLKGRRLVFDNQL
Change,normalised enrichment score
TLKGRALVFDNQL [R6A],6.57
TLKGRRLVFDNQD [L13D],7.69
TLKGRTLVFDNQL [R6T],6.03
TLKGRRLVFKNQL [D10K],7.27
TLKGRRLVFDNQR [L13R],8.37
TLKGRRLVFDNSL [Q12S],8.09
TIKGRRLVFDNQL [L2I],8.53
TLKCRRLVFDNQL [G4C],8.22
ILKGRRLVFDNQL [T1I],8.53
TPKGRRLVFDNQL [L2P],7.47
TLKGRILVFDNQL [R6I],5.53
TWKGRRLVFDNQL [L2W],7.1
TLKGRRLVFDQQL [N11Q],9.09
TLKGRRLVFDNRL [Q12R],9.2
TLKGRRLVFFNQL [D10F],8.97
VLKGRRLVFDNQL [T1V],10
TLKGMRLVFDNQL [R5M],1.21

# Set 2
# Target: ABI1, truncated, D143A, DHFR fusion (Arabidopsis thaliana)
# Technique: DHFR PCA, deep sequencing
# Sample: yeast
# Notes: methotrexate growth selection, single substitutions
# With: (+)-ABA 58 µM
# Baseline: wild-type fitted maximum
# Reading: higher = stronger binding
# Starting sequence: PYL1, truncated, DHFR fusion (Arabidopsis thaliana); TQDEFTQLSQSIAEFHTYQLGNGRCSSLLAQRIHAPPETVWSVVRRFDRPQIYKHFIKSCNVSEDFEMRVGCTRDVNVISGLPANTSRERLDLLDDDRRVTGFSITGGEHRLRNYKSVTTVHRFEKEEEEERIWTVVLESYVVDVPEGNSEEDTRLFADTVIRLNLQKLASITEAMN; partner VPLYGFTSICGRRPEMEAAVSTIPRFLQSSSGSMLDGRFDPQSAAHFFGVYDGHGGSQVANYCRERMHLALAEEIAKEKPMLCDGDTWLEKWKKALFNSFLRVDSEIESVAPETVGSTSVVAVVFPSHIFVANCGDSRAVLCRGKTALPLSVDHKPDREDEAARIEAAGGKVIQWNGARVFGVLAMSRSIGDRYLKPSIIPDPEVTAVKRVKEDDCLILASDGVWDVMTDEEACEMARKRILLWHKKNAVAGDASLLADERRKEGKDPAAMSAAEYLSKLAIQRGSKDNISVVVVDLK
Change,relative binding score
I57T,27.2%
L112H,-2.49%
K54W,15.5%
N77Y,90.1%
T119Q,73.8%
N114I,5.87%
V100P,-15%
I172F,67.5%
P83I,4.99%
N77C,91.7%
N61R,90.4%
M176S,82.4%
V44T,19%
R113D,64.2%
L138A,21%
N149E,30.4%
Y53D,-21.1%
V161R,-2.35%

# Set 3
# Target: RNA binding protein fox-1 homolog 2, RRM domain, GST-SBP tag (RBFOX2, Homo sapiens, UniProt O43251-10, residues 100-194)
# Technique: RNA Bind-n-Seq
# Molecule type: RNA
# Sample: in vitro
# Tested at: 365 nM
# Notes: natural RNA segment, single round, ends assumed
# Baseline: no-protein control
# Reading: higher = stronger binding
# Constant ends, left off below: GGGAGUUCUACAGUCCGACGAUC … UGGAAUUCUCGGGUGCCAA
# Construct (chain): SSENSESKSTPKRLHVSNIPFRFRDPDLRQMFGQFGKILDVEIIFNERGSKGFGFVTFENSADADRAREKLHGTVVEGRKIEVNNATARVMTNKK
Strand,RBNS enrichment (R)
AUGGAGGCAGCGUGUACACAUCGUCUUGAGUUUACGUUAUGACAUGGUUUAUUUUUAGUGCUAUUUUGUUAUAUGAUUGCCAUUGAAAAUAAUAAAAAGAAUGUUGGUUU,0.293
UGAGGCCAAGAUGAGAAGUGACUCUCUCAAGGUCACACAGAUAGUGAUAGAACAAGAGCCCAGGCUUCCUGUUUCCAAGUCACCUGUGUUUCCUGGGACCAAAUAAUGAG,0.21
CUGCCAGCAGUACAGGGCACAGCCCAAGCCACCAUAGGCCAGCCUGGAGUCUUUUUCAUGCUCUGGUCACCCAAGCUGCCUCAGAACCCAUUUGCUUCUCUCCUUCCUGG,0.359
AGCUUAAAAUGCAUGACAGGAUAGUUUCUCAUUCUUUGAAACAUUUUCAGUCUCAAACUUUCUGCAUACUUUGCCUCCUUUAAAAGUUACAAAUAUUACAAAGUAAAAUC,0.578
AGUGGUUAAUGCUUCCUUUAAAAAUAAUUGAGUCAUCCAUUCACUCUUUUUCAGUUUUAUCUGUCAAUAGUAGCUACAUUUUUAAUGGGAGCACCUUUUAUCCCAAAGUG,0.335
UGUAUUUUUGUAUAUUGUAUUUAUAUAUAAAGAAAGAAAUGUCUACUUAUGCAUGCUAAAUUAUUAUUUAGCUUUCCCAUCCCCCAGGGUGGAGAUGGAAUGUAAAAUAA,2.58
UCUCACAGAAUGCUCAUCAUUCUCCUUCAGCUGUUGCCAUUUUCUUUCAAUCUGAAAAUUAAAGACAUUGGAGAGAAAGGCUAACCACUUAAUGGUGCUUAAAAAUCGGG,0.394
UCAAAAUCAGUAACUUUUAAUCUAGGAAAUUGAAAAAUAUUAAGUUGCAAAGCAAAAAAAGGUAUUUUCUUGAAAAUACUAUUUAAUGUUUAACUAGACUAUAGGUAGUU,0.465

# Further values, each from its own experiment
Substance,target,assay,system,conditions,scale,endpoint,value
"PhoQ, residues 284 288 289 292 302 303 TTCLQL","PhoP, residues 12 14 15 18 19 TPWLV (Escherichia coli, UniProt P23836)","Sort-seq, item: YFP reporter",E. coli,"PhoQ-PhoP variant library, with: 10 µM Mg2+","baseline: high Mg2+ state, higher = stronger signaling",fold induction,1.44

# Excerpt of the above (set 2):
Change,relative binding score
N61R,90.4%
V44T,19%
I57T,27.2%
